Published values pooled from the literature.
Compare with care: the assays were run in different laboratories. ± marks the error that the study gave.
Organism: Plasmodium falciparum

SMILES | test | system | setting | IC50
O=C1c2ccc3c4c(ccc(c24)C(=O)N1CCCn1ccnc1)C(=O)N(CCCn1ccnc1)C3=O | parasite growth, SYBR Green I | 3D7, chloroquine-sensitive | 72 h | 0.26 ± 0.00601 µM
c1ccc2c(NCCNc3ncnc4cc(OCC5CCN(CCNc6ccnc7ccccc67)CC5)ccc34)cccc2c1 | parasite growth | NF54 | blood stage | 0.06 µM
CC1C=CC=CC(C)C2C=CC3CC(C)(O)C(Cl)C(C)C3C2C(=O)C(Cl)(Cl)C(=O)C(C)C(=O)O1 (stereo not drawn) | parasite growth, ELISA | 3D7 | blood stage | 0.021 µM
COC1=CC(c2ccc[nH]2)=NC1=CN1CCCCC1 | parasite growth, SYBR Green I fluorescence | D6, chloroquine-sensitive | – | > 2.5 µM
COC1C(C)C2C(C=CC3C(C)C=CC=CC(C)OC(=O)C(C)C(=O)C(Cl)(Cl)C(=O)C32)CC1(C)O (stereo not drawn) | parasite growth, ELISA | 3D7 | blood stage | > 11 µM
CCCCCCCCCC1CC2CCCC3CC(CCCCCCCCC)NC(=N1)N23 (stereo not drawn) | parasite growth, plasmodial LDH | W2 chloroquine-resistant | – | 1.76 µM
CCC1=CC(=CNC2CCCCCC2)N=C1c1ccc[nH]1 | parasite growth, SYBR Green I fluorescence | D6, chloroquine-sensitive | – | 1.3 µM
COc1cc2nc(N3CCCN(C)CC3)nc(SC3CCN(Cc4ccccc4)CC3)c2cc1OC | parasite growth, SYBR Green I | 3D7 | 3 days | 1.54 µM
COc1cc2c3c4c1Oc1cc5c(cc1O4)[C@H](Cc1ccc(OCCCN(C)C)c(c1)Oc1ccc(cc1)C[C@@H]3N(C)CC2)N(C)CC5 | parasite growth, SYBR Green | NF54 | 72 h, blood stage | 0.13 µM
CC(=O)O[C@@H]1C[C@H]2C(C)(C)C(=O)C=C[C@]2(C)[C@H]2CC[C@]3(C)C(=CC[C@H]3C3=CC(O)OC3=O)[C@@]21C (stereo partly drawn) | [3H]hypoxanthine incorporation | D6, chloroquine-sensitive | – | 2.4 µM
CC(C)=CCC/C(C)=C/Cc1c(CCC(=O)c2ccc(O)cc2O)ccc(O)c1O | parasite growth, PfLDH | 3D7 expressing yeast DHODH | – | 11.6 µM
N[C@@H](CCC(=O)N[C@@H](CCC(=O)N(O)c1ccc(Br)cc1)C(=O)NCC(=O)O)C(=O)O | blood-stage growth, Giemsa-stained smears | 3D7 | 48 h, synchronous culture | 70 µM
CCC1=C(C)C(=CNC2CCCCCCC2)N=C1c1ccc[nH]1 | parasite growth, SYBR Green I fluorescence | D6, chloroquine-sensitive | – | 0.056 µM
CN(C)CCNC(=O)/C=C/C(Cc1ccccc1)Nc1ccnc2cc(Cl)ccc12 (stereo not drawn) | parasite growth, flow cytometry | 3D7 | 48 h, blood stage | 0.0296 µM
N#Cc1cccc(-n2nnnc2N2CCC(C(=O)N3CCCc4ccccc43)CC2)c1 | parasite growth, SYBR Green | 3D7 | 72 h, blood stage | 1.7 µM
O=C(Nc1ccccc1O)c1ccc(-c2ccc(Cl)cc2Cl)o1 | parasite growth | NF54 | 72 h, blood stage | 0.92 µM
Clc1ccc2c(c1)nc(N1CCNCC1)n2-c1ccccc1 | parasite growth | NF54 | blood stage | 2.08 µM
COC(=O)[C@@H]1Cc2c([nH]c3ccccc23)[C@@H](c2cccnc2)N1 | parasite growth | 3D7 | 48 h, blood stage | 3.07 µg/mL
O=C(C1CCN(c2nnnn2-c2ccccc2)CC1)N1CCOc2ccccc21 | parasite growth, SYBR Green | 3D7 | 72 h, blood stage | 6.8 µM
Clc1ccc(C2=CC(c3ccc[nH]3)=NC2=CNC2CCCCC2)cc1 | parasite growth, SYBR Green I fluorescence | D6, chloroquine-sensitive | – | 1.02 µM
Cc1cc2[nH]c(C(=O)Nc3ccccc3C)c(CN3CCOCC3)c2s1 | growth, [3H]hypoxanthine incorporation | 3D7 | 48 h | > 50 µM
Cc1cc(N2CC[C@@](C#N)(C3(C)CC3)C2=O)cc(C(=O)NCc2cc(F)cc(-c3cnn(C)c3)c2)n1 | parasite growth | NF54 | liver stage | 0.013 µM
O=C(C1CCN(c2nnnn2-c2ccc(N3CCCC3)cc2)CC1)N1CCCc2ccccc21 | parasite growth | 3D7 | 72 h, blood stage | 0.15 µM
CC(C)(C)OC(=O)CNC(=O)[C@H](CCC(=O)N(O)c1ccc(Br)cc1)NC(=O)NC[C@H](N)C(=O)OC(C)(C)C | blood-stage growth, Giemsa-stained smears | 3D7 | 48 h, synchronous culture | 30 µM
O=C(/C=C/c1ccc(Cl)c(Cl)c1)N1CCC(CCN2CCC(c3c[nH]c4cnccc34)CC2)CC1 | parasite growth, flow cytometry | 3D7 | 72 h | 0.0236 ± 0.00797 µM
CCNCC#CCNc1ccnc2cc(Cl)ccc12 | parasite growth | 3D7 | blood stage | 0.023 µM
COc1cc(C)ccc1NC(=O)C1NCCc2ccccc21 (stereo not drawn) | parasite growth, SYBR Green | 3D7 | 96 h, blood stage | 8.8 µM

SMILES | test | system | setting | IC50
COC1(C)CC2C=CC3C(C)C=CC=CC(C)OC(=O)C(C)C(=O)C(Cl)(Cl)C(=O)C3C2C(C)C1O (stereo not drawn) | parasite growth, ELISA | 3D7 | blood stage | > 7.81 µM
O=C(C1CCN(c2nnnn2-c2ccccc2Cl)CC1)N1CCCc2ccccc21 | parasite growth, SYBR Green | 3D7 | 72 h, blood stage | 1.1 µM
COC1=CC(c2ccc[nH]2)=NC1=Cc1[nH]c(Cc2ccc(Cl)cc2)cc1Cc1ccc(Cl)cc1 | parasite growth, SYBR Green I fluorescence | D6, chloroquine-sensitive | – | 0.0061 µM
CC1C=CC=CC(C)C2C=CC3CC(C)(O)C(F)C(C)C3C2C(=O)C(Cl)(Cl)C(=O)C(C)C(=O)O1 (stereo not drawn) | parasite growth, ELISA | 3D7 | blood stage | 0.135 µM
COc1cc(O)c(-c2ccc(OC)c3c(OC)cc(C)cc23)c2c1[C@H](C)N(C)[C@H](C)C2 | parasite growth | NF54 | blood stage | 4.51 µM
O=C1c2ccc3c4c(ccc(c24)C(=O)N1CCCn1ccnc1)C(=O)N(c1c2ccccc2nc2ccccc12)C3=O | parasite growth, SYBR Green | 3D7 | 72 h, blood stage | 0.78 µM
COC1=CC(c2ccc[nH]2)=NC1=CNC1CCCC1 | parasite growth, SYBR Green I fluorescence | D6, chloroquine-sensitive | – | 0.068 µM
CC1=N[C@H](C)Cc2c(-c3ccc(C)cc3)ccc(O)c21 | parasite growth, SYBR Green | NF54 | 96 h, blood stage | 0.99 µM
O=[N+]([O-])c1ccc(C(=S)Nc2ccccc2)cc1 | parasite growth, SYBR Green | 3D7 | 96 h, blood stage | 80 µM
N#Cc1c(-c2ccco2)[n+]([O-])c2ccc(Cl)cc2[n+]1[O-] | parasite growth, [3H]hypoxanthine incorporation | 3D7 chloroquine-sensitive | – | 0.49 ± 0.28 µM
O=C(C1CCN(c2nnnn2-c2ccc(F)cc2)CC1)N1CCCc2ccccc21 | parasite growth, SYBR Green | 3D7 | 72 h, blood stage | 4.3 µM
CNC(=O)c1ccc(-c2cnn3ccc(C(=O)N(c4ccc(C#N)cn4)C(C)(C)C)cc23)cc1 | parasite growth | 3D7 | – | 0.126 ± 0.115 µM
COc1ccc2c(c1)C1CC(C)(N2)c2c(C)nc3ccc(OC)cc3c21 (stereo not drawn) | parasite growth, SYBR green I | INDO | – | 2.47 ± 0.146 µM
Cc1nc(CN(C)c2ncnc3c2cnn3CCO)cs1 | parasite growth | NF54 | 72 h, blood stage | 3.86 µM
C#CCOc1cc(C(=O)C2=C(C)C(=O)c3ccccc3C2=O)ccc1C(F)(F)F | parasite growth, SYBR Green | Dd2 | 72 h, synchronized ring stage | > 5 µM
CNC(=O)c1ccc(-c2cnn3ccc(C(=O)Nc4ccc(C#N)cn4)cc23)cc1 | parasite growth | 3D7 | – | 0.521 µM
CCN(CC)C/C=C\CNc1ccnc2cc(Cl)ccc12 | parasite growth | Dd2 | – | 0.262 ± 0.03 µM
CC1=N[C@H](C)Cc2c(-c3ccc(Cl)cc3)ccc(O)c21 | parasite growth, SYBR Green | NF54 | 96 h, blood stage | 21.9 µM
COC1=CC(c2ccc[nH]2)=NC12OC(C)CC1CCCCCCCc3ccc([nH]3)C12 (stereo not drawn) | parasite growth | D6 | blood stage | 0.0023 µM
C(=NC12CC3CC(CC(C3)C1)C2)c1cc(-c2ccc[nH]2)c[nH]1 | parasite growth, SYBR Green I fluorescence | D6, chloroquine-sensitive | – | > 2.5 µM
COc1cccc2c(-c3ccc4c(c3O)[C@@H](C)N[C@H](C)C4)c(CO)cc(OC)c12 | parasite growth, SYBR Green | NF54 | 96 h, blood stage | 0.015 µM
N[C@@H](CCC(=O)N[C@@H](CCC(=O)N(O)c1ccc(Br)cc1)C(=O)NCC(=O)OC1CCCC1)C(=O)OC1CCCC1 | blood-stage growth, Giemsa-stained smears | 3D7 | 48 h, synchronous culture | 30 µM
CC1=N[C@H](C)Cc2c(-c3cccc(Cl)c3)ccc(O)c21 | parasite growth, SYBR Green | NF54 | 96 h, blood stage | 1.93 µM
COc1ccc2c(c1)[n+]([O-])c(C#N)c(-c1cccs1)[n+]2[O-] | parasite growth, [3H]hypoxanthine incorporation | 3D7 chloroquine-sensitive | – | 0.8 ± 0.1 µM
CCC1=C(C)C(c2ccc[nH]2)=NC1=CNC1CCCCCCC1 | parasite growth, SYBR Green I fluorescence | D6, chloroquine-sensitive | – | 0.111 µM
N[C@@H](CNC(=O)N[C@@H](CCC(=O)N(O)c1ccc(Br)cc1)C(=O)NCC(=O)O)C(=O)O | blood-stage growth, Giemsa-stained smears | 3D7 | 48 h | ~90 µM
Cc1ccc2c(c1)[n+]([O-])c(C#N)c(-c1cccs1)[n+]2[O-] | parasite growth, [3H]hypoxanthine incorporation | 3D7 chloroquine-sensitive | – | 2.86 ± 0.46 µM

Excerpt of the above:
SMILES | test | system | setting | IC50
COc1ccc2c(c1)[n+]([O-])c(C#N)c(-c1cccs1)[n+]2[O-] | parasite growth, [3H]hypoxanthine incorporation | 3D7 chloroquine-sensitive | – | 0.8 ± 0.1 µM
CCC1=C(C)C(c2ccc[nH]2)=NC1=CNC1CCCCCCC1 | parasite growth, SYBR Green I fluorescence | D6, chloroquine-sensitive | – | 0.111 µM
CC1=N[C@H](C)Cc2c(-c3cccc(Cl)c3)ccc(O)c21 | parasite growth, SYBR Green | NF54 | 96 h, blood stage | 1.93 µM
COC1=CC(c2ccc[nH]2)=NC1=CN1CCCCC1 | parasite growth, SYBR Green I fluorescence | D6, chloroquine-sensitive | – | > 2.5 µM
Clc1ccc2c(c1)nc(N1CCNCC1)n2-c1ccccc1 | parasite growth | NF54 | blood stage | 2.08 µM
Cc1nc(CN(C)c2ncnc3c2cnn3CCO)cs1 | parasite growth | NF54 | 72 h, blood stage | 3.86 µM
C(=NC12CC3CC(CC(C3)C1)C2)c1cc(-c2ccc[nH]2)c[nH]1 | parasite growth, SYBR Green I fluorescence | D6, chloroquine-sensitive | – | > 2.5 µM
